Published values collected from several papers.
Each numbered part is a random draw from the data of one study; scales do not carry over between parts. Positions count from the first letter of the parent shown.

Sample 1 — target: BATF2, bZIP domain (human); method: DHFR protein complementation; medium: yeast; baseline: wild-type JUN-FOS pair; reading: higher = stronger binding
Setting: single substitutions, most at no-binding floor
Starting sequence: JUN, bZIP domain (human); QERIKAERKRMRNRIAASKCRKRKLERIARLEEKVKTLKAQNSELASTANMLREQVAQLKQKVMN; partner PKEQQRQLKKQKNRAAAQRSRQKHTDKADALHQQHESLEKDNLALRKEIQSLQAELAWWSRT
| Change | binding fitness [natural log] |
| --- | --- |
| L31H | -0.955 |
| V35P | -1.49 |
| V35Y | -1.29 |
| E32A | -0.0448 |
| E32Q | -0.538 |
| A46D | -0.947 |
| T37H | -0.12 |
| K34R | -0.125 |

Sample 2 — target: CCNB2, cyclin fold, Cln2 fusion (human); method: yeast growth competition, sequencing; medium: yeast; setting: weak parent motif; baseline: not given; reading: higher = stronger binding
Starting sequence: CDC25A docking peptide (human); PPHRRRLLFACSP; partner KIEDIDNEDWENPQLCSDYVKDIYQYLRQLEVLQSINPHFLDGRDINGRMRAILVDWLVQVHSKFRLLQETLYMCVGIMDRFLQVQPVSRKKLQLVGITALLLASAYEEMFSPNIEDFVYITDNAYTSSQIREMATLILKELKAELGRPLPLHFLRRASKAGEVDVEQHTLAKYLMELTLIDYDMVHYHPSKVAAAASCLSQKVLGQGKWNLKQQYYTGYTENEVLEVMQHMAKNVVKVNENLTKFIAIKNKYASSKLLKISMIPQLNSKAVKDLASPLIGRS
| Change | normalised enrichment score |
| --- | --- |
| PPHRKRLLFACSP [R5K] | 0.8 |
| PPHRRRLLFACSQ [P13Q] | 1.13 |
| PPARRRLLFACSP [H3A] | 0.298 |
| PPHRRRLLKACSP [F9K] | 0.993 |
| PTHRRRLLFACSP [P2T] | 0.818 |

Sample 3 — method: RNA Bind-n-Seq; form: RNA; medium: in vitro; tested at: 100 nM; baseline: input RNA pool; reading: higher = stronger binding
Target: RING finger protein unkempt homolog, zinc fingers 1-6, SBP tag (UNK, Homo sapiens, UniProt Q9C0B0, residues 30-357)
Chain of UniProt Q9C0B0 (30-357, looked up): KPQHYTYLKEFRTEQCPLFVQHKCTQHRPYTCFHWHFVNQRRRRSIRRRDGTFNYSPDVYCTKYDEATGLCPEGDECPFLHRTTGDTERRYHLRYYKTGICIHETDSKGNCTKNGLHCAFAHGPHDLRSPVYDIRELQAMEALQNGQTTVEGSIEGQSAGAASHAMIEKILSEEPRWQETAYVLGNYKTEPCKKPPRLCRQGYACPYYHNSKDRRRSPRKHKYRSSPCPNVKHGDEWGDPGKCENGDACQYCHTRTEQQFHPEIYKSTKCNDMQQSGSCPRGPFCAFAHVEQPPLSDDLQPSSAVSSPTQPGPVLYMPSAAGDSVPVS
Setting: RNA with constant flanks, vertebrate orthologous sites, ends assumed
| Oligonucleotide | bound/input enrichment [ratio] |
| --- | --- |
| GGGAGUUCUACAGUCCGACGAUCUUUUGGUAUGAAGCUGCAUACCAAUACUCAUCCUCUUUUUUUCAUUAUACCAACUAUCCCUAGAAAUAGGAGUUUAAUAUUUUUCAAAAUUUUACAUUGCUGUAUAGUCAAAAUUUUAAACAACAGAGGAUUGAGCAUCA | 0.712 |
| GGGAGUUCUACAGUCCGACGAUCCAUGUCCUUGUUACUGUGAUAUUUAAAAUAUCCACAGUAUUCACCUUUUCCAAAUGAUUCUAGUAAUAUCUUUCUCUUAUCUGUUAUUUAUCAAUUUUUCCCAGUAUUUUUAUAUGGAAACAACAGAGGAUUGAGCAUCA | 1.58 |
| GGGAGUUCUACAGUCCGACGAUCGAGUGCUUAAACCGCCAACAGUUAGAAGAUGUUAUUUAUUUGUGUCUGUAAGUUUGUACAUAGUAAUGCCAGCCUUGUUGCUGAAUUUUUUAUGUGGGGGGAGAUGAGUUUGAAUUUUGUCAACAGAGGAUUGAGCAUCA | 1.7 |
| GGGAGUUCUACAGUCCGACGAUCGUUGUGAUCCCUUUAAUAUACACAAAAAAUUUUCAAGGAAAAACUUGCAUGUAAUUGACAUAAAUGAUGCUACUUUUCUAAGUGCCAAGUUUGGACGGCAGUUUAUACCUGGCUGGAAGCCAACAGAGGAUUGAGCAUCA | 0.634 |
| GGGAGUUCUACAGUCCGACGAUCUCUAGUUCUUAACCACCAACACUCCUAAAAGAUUUAGAAAAAAACGUUUACACCAUAAUCUAGUUUAUGAAGAAGUCUUGUGCUAGAAUACUUUUUAAAAAGUAUUUUUGAAUACCAUUACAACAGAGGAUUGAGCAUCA | 0.977 |
| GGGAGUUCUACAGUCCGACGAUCUUUUUGUUAACACGUGACACUGUGUAUUGAGGAUCUUCUGAGGGAGGAGGAAGGAUGCUCUAGCAGUGGUGCCUGGGUUCUUGGCCUCCAGUGCCCCACCACCCUCACCACCCCACCUGGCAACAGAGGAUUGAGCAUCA | 0.41 |
| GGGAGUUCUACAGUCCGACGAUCCUAGUCAGGGAUAACCGUUCACUUAUUUUAAUAAAGAAAUGAGAUGCUGAAAACCACAUUAGGACUUAGCUGGAGAAUUUAAAUAAGCUUCUUUUAGGUGAUUCUAAGAUUCAGAAUCACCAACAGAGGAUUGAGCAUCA | 0.414 |
| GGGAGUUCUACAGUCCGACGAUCUACAUCUGGUGAUAUUUGGCCUGGCCUCUCAGCUUAUGAUAAUAGUCCUAGAUCACCUCAUAGUCCUUCACCAAUUGCUACACCACCUAGUCAGAGUUCAUCUUGCUCUGAUGCCCCCAUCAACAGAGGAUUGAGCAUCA | 1.31 |

Further values, each from its own experiment
| Substance | target | assay | system | conditions | how to read | endpoint | result |
| --- | --- | --- | --- | --- | --- | --- | --- |
| PhoQ, residues 284 288 289 292 302 303 SSTLLI | PhoP, residues 12 14 15 18 19 IQSYL (Escherichia coli, UniProt P23836) | Sort-seq, measured: YFP reporter | E. coli | PhoQ-PhoP variant library, together with: 10 µM Mg2+ | baseline: high Mg2+ state, higher = stronger signaling | fold induction | 11 |

For quick reference, copied from above (sample 3):
| Oligonucleotide | bound/input enrichment [ratio] |
| --- | --- |
| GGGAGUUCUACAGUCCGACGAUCUUUUGGUAUGAAGCUGCAUACCAAUACUCAUCCUCUUUUUUUCAUUAUACCAACUAUCCCUAGAAAUAGGAGUUUAAUAUUUUUCAAAAUUUUACAUUGCUGUAUAGUCAAAAUUUUAAACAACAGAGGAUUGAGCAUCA | 0.712 |
| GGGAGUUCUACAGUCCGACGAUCCUAGUCAGGGAUAACCGUUCACUUAUUUUAAUAAAGAAAUGAGAUGCUGAAAACCACAUUAGGACUUAGCUGGAGAAUUUAAAUAAGCUUCUUUUAGGUGAUUCUAAGAUUCAGAAUCACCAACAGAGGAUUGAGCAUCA | 0.414 |
| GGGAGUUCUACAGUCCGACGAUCUACAUCUGGUGAUAUUUGGCCUGGCCUCUCAGCUUAUGAUAAUAGUCCUAGAUCACCUCAUAGUCCUUCACCAAUUGCUACACCACCUAGUCAGAGUUCAUCUUGCUCUGAUGCCCCCAUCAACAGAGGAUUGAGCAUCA | 1.31 |
